# Assay results gathered from unrelated publications.
# A part holds a random share of what one study measured. Several values in a cell are separate wells, animals, samples, runs or records.
# Chain of UniProt Q16539 (whole entry, looked up): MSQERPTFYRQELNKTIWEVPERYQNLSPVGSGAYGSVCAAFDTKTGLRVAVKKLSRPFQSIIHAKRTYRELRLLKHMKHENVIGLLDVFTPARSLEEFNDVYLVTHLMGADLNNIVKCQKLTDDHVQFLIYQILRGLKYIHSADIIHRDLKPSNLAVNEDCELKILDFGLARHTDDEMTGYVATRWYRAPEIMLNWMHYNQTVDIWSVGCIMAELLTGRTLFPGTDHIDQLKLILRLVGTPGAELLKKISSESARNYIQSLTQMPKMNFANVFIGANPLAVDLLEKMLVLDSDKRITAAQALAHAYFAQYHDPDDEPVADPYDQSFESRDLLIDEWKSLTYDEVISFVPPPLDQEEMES
# Chain of UniProt Q6P2M8 (whole entry, looked up): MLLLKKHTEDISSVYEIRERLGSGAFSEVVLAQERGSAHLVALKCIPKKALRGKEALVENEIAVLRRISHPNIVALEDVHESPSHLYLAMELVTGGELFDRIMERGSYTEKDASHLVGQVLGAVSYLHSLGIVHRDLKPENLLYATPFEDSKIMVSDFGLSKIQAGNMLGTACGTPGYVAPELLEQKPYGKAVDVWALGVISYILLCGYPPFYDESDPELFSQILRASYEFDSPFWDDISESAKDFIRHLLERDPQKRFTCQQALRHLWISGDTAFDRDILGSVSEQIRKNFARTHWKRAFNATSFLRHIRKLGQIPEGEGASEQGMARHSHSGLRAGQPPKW
# Chain of UniProt Q7KZI7 (whole entry, looked up): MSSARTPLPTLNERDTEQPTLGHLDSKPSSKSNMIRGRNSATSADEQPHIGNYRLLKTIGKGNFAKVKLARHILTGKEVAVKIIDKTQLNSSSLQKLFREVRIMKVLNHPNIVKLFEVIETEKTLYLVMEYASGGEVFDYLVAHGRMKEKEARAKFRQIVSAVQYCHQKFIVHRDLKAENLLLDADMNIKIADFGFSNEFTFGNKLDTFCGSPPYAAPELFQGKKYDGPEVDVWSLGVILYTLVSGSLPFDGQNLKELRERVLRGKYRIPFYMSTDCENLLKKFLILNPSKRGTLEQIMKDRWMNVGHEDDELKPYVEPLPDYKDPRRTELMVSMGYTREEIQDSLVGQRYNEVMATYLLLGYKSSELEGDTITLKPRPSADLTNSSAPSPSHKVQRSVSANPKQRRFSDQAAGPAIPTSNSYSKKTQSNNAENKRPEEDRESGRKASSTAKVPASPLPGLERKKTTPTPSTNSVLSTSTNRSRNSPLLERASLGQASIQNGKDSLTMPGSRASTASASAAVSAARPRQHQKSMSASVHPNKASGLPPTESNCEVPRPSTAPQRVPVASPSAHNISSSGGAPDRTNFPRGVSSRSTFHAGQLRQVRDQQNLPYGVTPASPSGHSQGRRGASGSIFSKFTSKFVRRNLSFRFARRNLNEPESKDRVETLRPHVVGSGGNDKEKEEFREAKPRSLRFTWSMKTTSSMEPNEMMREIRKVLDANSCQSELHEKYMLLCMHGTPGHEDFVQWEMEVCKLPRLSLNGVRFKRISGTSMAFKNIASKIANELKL
# Chain of UniProt P07948 (whole entry, looked up): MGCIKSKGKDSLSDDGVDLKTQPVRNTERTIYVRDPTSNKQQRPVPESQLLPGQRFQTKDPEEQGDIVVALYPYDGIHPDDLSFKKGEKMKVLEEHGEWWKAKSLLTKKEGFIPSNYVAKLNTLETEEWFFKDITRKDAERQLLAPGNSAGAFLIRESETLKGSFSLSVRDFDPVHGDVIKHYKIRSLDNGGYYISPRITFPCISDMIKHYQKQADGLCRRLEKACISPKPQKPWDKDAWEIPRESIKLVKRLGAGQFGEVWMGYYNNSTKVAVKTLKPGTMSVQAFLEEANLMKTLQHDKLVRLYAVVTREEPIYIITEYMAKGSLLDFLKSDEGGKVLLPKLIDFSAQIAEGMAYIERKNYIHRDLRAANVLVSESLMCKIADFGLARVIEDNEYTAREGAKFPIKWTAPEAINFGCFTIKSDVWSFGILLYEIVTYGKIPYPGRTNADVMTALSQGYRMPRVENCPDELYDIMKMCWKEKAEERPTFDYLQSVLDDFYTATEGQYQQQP

# Series 1 — read-out: enzyme activity; action: inhibitor; tested at: 0.5 µM; relative to: control
# Structure (SMILES): COc1cc2c(Nc3ccc(Br)cc3F)ncnc2cc1OCC1CCN(C)CC1
target,remaining activity
"Ribosomal protein S6 kinase alpha-4 (RPS6KA4, Homo sapiens, UniProt O75676)",110%
"cGMP-dependent protein kinase 2 (PRKG2, Homo sapiens, UniProt Q13237)",101%
"Tyrosine-protein kinase TXK (TXK, Homo sapiens, UniProt P42681)",57.5%
"Mitogen-activated protein kinase 1 (MAPK1, Homo sapiens, UniProt P28482)",99.1%
"Serine/threonine-protein kinase tousled-like 2 (TLK2, Homo sapiens, UniProt Q86UE8)",79.7%
"Rho-associated protein kinase 1 (ROCK1, Homo sapiens, UniProt Q13464)",99.4%
"MAP/microtubule affinity-regulating kinase 4 (MARK4, Homo sapiens, UniProt Q96L34)",99.4%
"RAC-beta serine/threonine-protein kinase (AKT2, Homo sapiens, UniProt P31751)",110%
"Cyclin-dependent kinase 1, with cyclin A (CDK1, Homo sapiens, UniProt P06493)",100%
"Serine/threonine-protein kinase DCLK2 (DCLK2, Homo sapiens, UniProt Q8N568)",104%
"Discoidin domain-containing receptor 2 (DDR2, Homo sapiens, UniProt Q16832)",68%
"Serine/threonine-protein kinase MARK2 (MARK2, Homo sapiens, UniProt Q7KZI7)",107%
"Serine/threonine-protein kinase Nek3 (NEK3, Homo sapiens, UniProt P51956)",103%
"Dual specificity protein kinase CLK4 (CLK4, Homo sapiens, UniProt Q9HAZ1)",84.3%
"Mitogen-activated protein kinase 14 (MAPK14, Homo sapiens, UniProt Q16539)",91.8%
"G protein-coupled receptor kinase 4 (GRK4, Homo sapiens, UniProt P32298)",102%
"Myosin-IIIb (MYO3B, Homo sapiens, UniProt Q8WXR4)",84.2%
"Calcium/calmodulin-dependent protein kinase type 1B (PNCK, Homo sapiens, UniProt Q6P2M8)",99.5%
"Dual specificity mitogen-activated protein kinase kinase 1 (MAP2K1, Homo sapiens, UniProt Q02750)",105%

# Series 2 — read-out: enzyme activity; action: inhibitor; tested at: 77 µM; relative to: untreated
# Target: DNA polymerase theta, ATPase domain (POLQ, Homo sapiens, UniProt O75417)
# Chain of UniProt O75417 (whole entry, unmodified, looked up): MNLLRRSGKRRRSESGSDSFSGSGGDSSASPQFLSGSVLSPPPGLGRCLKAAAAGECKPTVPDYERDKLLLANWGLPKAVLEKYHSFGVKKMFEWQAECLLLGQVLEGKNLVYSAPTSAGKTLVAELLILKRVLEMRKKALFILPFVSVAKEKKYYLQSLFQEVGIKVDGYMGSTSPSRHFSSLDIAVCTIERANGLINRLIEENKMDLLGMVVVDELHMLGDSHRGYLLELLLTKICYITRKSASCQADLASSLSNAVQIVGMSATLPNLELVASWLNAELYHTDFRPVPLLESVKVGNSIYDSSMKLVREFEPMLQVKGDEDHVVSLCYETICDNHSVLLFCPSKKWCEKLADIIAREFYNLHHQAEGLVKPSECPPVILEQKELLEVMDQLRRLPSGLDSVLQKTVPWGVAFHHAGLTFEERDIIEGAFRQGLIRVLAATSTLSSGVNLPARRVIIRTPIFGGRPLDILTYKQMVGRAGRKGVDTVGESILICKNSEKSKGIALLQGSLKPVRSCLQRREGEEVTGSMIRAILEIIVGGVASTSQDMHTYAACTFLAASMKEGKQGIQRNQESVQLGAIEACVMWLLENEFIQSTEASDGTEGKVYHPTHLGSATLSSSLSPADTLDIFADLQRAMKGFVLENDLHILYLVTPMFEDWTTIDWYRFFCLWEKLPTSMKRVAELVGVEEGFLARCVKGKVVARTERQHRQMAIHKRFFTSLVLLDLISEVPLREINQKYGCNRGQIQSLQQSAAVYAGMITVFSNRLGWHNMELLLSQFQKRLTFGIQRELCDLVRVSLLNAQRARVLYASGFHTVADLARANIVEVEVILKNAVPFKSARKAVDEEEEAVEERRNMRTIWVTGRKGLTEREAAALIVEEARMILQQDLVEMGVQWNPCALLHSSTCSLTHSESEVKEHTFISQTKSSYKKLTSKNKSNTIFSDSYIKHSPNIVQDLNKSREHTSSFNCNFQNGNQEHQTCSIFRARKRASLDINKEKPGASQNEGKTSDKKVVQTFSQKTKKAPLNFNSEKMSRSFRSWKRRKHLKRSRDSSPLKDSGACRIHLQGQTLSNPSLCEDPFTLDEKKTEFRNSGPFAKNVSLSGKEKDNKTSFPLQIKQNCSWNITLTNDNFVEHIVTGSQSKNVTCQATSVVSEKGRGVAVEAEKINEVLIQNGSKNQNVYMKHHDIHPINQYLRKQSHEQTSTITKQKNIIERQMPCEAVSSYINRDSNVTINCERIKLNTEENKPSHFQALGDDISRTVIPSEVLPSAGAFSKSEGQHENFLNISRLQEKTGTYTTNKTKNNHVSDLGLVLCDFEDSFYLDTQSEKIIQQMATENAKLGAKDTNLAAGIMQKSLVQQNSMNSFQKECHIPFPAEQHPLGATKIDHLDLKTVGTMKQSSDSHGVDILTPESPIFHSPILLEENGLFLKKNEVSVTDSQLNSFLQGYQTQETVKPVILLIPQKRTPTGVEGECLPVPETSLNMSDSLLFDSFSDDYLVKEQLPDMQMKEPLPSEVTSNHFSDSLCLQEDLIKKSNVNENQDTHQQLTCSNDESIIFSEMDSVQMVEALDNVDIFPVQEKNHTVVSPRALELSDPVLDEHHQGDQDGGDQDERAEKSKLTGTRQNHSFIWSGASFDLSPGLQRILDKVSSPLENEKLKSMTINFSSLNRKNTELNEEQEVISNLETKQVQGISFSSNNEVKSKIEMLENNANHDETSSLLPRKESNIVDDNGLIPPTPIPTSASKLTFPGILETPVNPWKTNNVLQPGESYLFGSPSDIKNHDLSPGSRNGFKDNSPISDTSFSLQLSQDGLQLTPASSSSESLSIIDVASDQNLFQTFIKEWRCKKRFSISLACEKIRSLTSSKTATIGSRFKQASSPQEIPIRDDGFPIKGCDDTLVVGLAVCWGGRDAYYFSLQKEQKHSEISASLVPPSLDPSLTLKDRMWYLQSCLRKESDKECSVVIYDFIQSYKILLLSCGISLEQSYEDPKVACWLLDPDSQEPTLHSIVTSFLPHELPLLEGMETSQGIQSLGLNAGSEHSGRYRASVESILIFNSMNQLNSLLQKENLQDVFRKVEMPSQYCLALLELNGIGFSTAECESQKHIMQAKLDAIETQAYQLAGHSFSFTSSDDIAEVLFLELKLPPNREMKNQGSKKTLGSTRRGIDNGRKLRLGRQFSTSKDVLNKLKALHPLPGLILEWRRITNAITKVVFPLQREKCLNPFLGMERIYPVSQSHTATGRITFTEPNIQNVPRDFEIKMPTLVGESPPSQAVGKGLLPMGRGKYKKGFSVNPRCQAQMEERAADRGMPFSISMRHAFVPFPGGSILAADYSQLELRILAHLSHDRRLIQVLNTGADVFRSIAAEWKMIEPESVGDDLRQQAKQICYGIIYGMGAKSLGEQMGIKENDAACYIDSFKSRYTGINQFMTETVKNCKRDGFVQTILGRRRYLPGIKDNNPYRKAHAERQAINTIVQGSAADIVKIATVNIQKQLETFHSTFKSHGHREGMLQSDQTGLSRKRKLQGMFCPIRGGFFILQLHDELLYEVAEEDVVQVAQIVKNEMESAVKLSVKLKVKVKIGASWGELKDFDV
Compound,remaining activity
CN(C)CC/C=C1\c2ccccc2CSc2ccccc21,143%
Nc1ccn([C@@H]2O[C@H](CO)[C@@H](O)[C@H]2O)c(=O)n1,80.7%
Cc1cc2nc3c(=O)[nH]c(=O)nc-3n(C[C@H](O)[C@H](O)[C@H](O)CO)c2cc1C,92.8%
C=CC[C@@H]1/C=C(\C)C[C@H](C)C[C@H](OC)[C@H]2O[C@@](O)(C(=O)C(=O)N3CCCC[C@H]3C(=O)O[C@H](/C(C)=C/[C@@H]3CC[C@@H](O)[C@H](OC)C3)[C@H](C)[C@@H](O)CC1=O)[C@H](C)C[C@@H]2OC,99.8%
Cc1cccc(C#Cc2ccccc2)n1,82.9%
CCC(=O)OCC(=O)[C@@]1(OC(=O)CC)[C@H](C)C[C@H]2[C@H]3[C@H]([C@@H](O)C[C@@]21C)[C@@]1(C)C=CC(=O)C=C1C[C@H]3Cl,96%
Nc1c(CC(=O)O)cccc1C(=O)c1ccccc1,101%
CN(C)CCC(c1ccc(Cl)cc1)c1ccccn1 (stereo not drawn),99.4%
COc1cc(C(=O)OCCCN2CCCN(CCCOC(=O)c3cc(OC)c(OC)c(OC)c3)CC2)cc(OC)c1OC,94.6% and 103%
Cc1cc2c(cc1Cl)N(C(=O)Nc1cccc3ncccc13)CC2,96.1%

# Series 3 — read-out: ligand displacement; tested at: 10 µM
# Target: Histamine H2 receptor (HRH2, Homo sapiens, UniProt P25021)
# Chain of UniProt P25021 (whole entry, looked up): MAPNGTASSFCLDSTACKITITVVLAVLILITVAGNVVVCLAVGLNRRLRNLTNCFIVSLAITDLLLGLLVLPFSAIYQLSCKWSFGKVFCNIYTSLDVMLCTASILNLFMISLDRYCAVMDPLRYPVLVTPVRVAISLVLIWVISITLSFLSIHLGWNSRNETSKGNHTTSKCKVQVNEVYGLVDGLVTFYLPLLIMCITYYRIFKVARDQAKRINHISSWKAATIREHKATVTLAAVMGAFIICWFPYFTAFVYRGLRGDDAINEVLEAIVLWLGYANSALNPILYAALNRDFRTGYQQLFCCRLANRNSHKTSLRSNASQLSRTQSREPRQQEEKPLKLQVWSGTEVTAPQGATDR
Structure (SMILES),inhibition
NC(=O)c1ccc2nc(-c3ccc(C4(N)CCC4)cc3)c(-c3ccccc3)n2n1,0.95%
CN(C)C(=O)c1sc2nc(N3CCC(S(C)(=O)=O)CC3)cc(C(F)(F)F)c2c1N,-1.35%
CO[C@H]1CC[C@H](CNc2ccc(S(=O)(=O)NC(=O)c3ccc(N4CCN(CC5=C(c6ccc(Cl)cc6)CC(C)(C)CC5)CC4)cc3Oc3cnc4[nH]ccc4c3)cc2[N+](=O)[O-])CC1,13.6%
CC[C@H](CC(=O)O)n1c(=O)c2ncccc2n(Cc2cn(C)c3cc(C)cc(C)c23)c1=O,-4.71%
COc1cccc(NC(=O)c2nc3scc(CN(C)Cc4ccccc4)c3c(=O)[nH]2)c1,30.7%
CN1CCN(c2ccnc(NCCc3ccccc3)n2)CC1,95.6%
CC(=O)N1CCC(c2ccc(C(=O)NC3=NCCN3)cc2C(F)(F)F)CC1,-9.37%
NS(=O)(=O)c1cc(NC(=O)Cc2ccccc2)ccc1Oc1cccc(Cl)c1,-4.85%

# Series 4 — Structure (SMILES): O=C(Nc1ccccc1)Nc1cccc(Oc2ccc3nccn3n2)c1; tested at: 1 µM
target,assay,conditions,scale,remaining binding [%]
"Mitogen-activated protein kinase 14 (MAPK14, Homo sapiens, UniProt Q16539)",competitive binding,p38-alpha,,100
"Calcium/calmodulin-dependent protein kinase type 1B (PNCK, Homo sapiens, UniProt Q6P2M8)",competitive binding,CAMK1B,,100
"Phosphatidylinositol 5-phosphate 4-kinase type-2 gamma (PIP4K2C, Homo sapiens, UniProt Q8TBX8)","competitive binding panel, item: PIP5K2C",,relative to: vehicle,52
"Non-receptor tyrosine-protein kinase TNK1 (TNK1, Homo sapiens, UniProt Q13470)",competitive binding panel,,relative to: vehicle,77
"Tyrosine-protein kinase JAK2 (JAK2, Homo sapiens, UniProt O60674)",competitive binding panel,JH1 catalytic domain,relative to: vehicle,93
"Tyrosine-protein kinase Lyn (LYN, Homo sapiens, UniProt P07948)",competitive binding panel,,relative to: vehicle,100
"STE20-like serine/threonine-protein kinase (SLK, Homo sapiens, UniProt Q9H2G2)",competitive binding panel,,relative to: vehicle,88
"Serine/threonine-protein kinase/endoribonuclease IRE1 (ERN1, Homo sapiens, UniProt O75460)",competitive binding panel,,relative to: vehicle,100

# For quick reference, copied from above (series 1):
target,remaining activity
"Ribosomal protein S6 kinase alpha-4 (RPS6KA4, Homo sapiens, UniProt O75676)",110%
"cGMP-dependent protein kinase 2 (PRKG2, Homo sapiens, UniProt Q13237)",101%
"Tyrosine-protein kinase TXK (TXK, Homo sapiens, UniProt P42681)",57.5%
"Mitogen-activated protein kinase 1 (MAPK1, Homo sapiens, UniProt P28482)",99.1%
"Serine/threonine-protein kinase tousled-like 2 (TLK2, Homo sapiens, UniProt Q86UE8)",79.7%
